Assay results pooled from the literature.
Numbered parts are unrelated; each lists some results of a single study. Substitutions count along the parent as printed.

Study 1
Target: CCNB1, cyclin fold, Cln2 fusion (human)
Method: yeast growth competition, sequencing
Medium: yeast
Setting: strong parent motif
Baseline: not given
Reading: higher = stronger binding
Starting sequence: PKN2 docking peptide (human); VSAVRKLDFSDTM
Under “normalised enrichment score”, `VQAVRKLDFSDTM [S2Q]` is recorded as 3.52.
Under “normalised enrichment score”, `VSAVRKLDFSLTM [D11L]` is recorded as 2.22.
Under “normalised enrichment score”, `VSAHRKLDFSDTM [V4H]` is recorded as 0.552.
`VSAVRKPDFSDTM [L7P]`: “normalised enrichment score” 0.581.
Under “normalised enrichment score”, `VSAVRKLDFSDCM [T12C]` is recorded as 4.01.
For `VSAVRKLDFSVTM [D11V]`, “normalised enrichment score” read 2.71.
`VSAVRKLDFSDYM [T12Y]` — result for “normalised enrichment score”: 3.62.

Study 2
Target: RNA binding protein fox-1 homolog 2, RRM domain, GST-SBP tag (RBFOX2, Homo sapiens, UniProt O43251-10, residues 100-194)
Method: RNA Bind-n-Seq
Form: RNA
Medium: in vitro
Tested at: 365 nM
Setting: natural RNA segment, single round, ends assumed
Baseline: no-protein control
Reading: higher = stronger binding
Target sequence (chain): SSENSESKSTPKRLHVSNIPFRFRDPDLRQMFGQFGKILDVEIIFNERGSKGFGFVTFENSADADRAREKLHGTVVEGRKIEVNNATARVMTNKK
For `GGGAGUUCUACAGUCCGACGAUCAGUGUAAUAUUUCUAACGGUGACUUUGACCUAUUCUGUAGUACAACUGUAAUAGCUAUUGGUCUUCAAGUGGGUUUAGAUUUGGUGACAUCAGUUUGAUAUUCUCUUAAAUGGAAUUCUCGGGUGCCAA`, “RBNS enrichment (R)” read 0.427.
`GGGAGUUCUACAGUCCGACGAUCGAAUGCAUGCCCAGUCAGAAAUCUGUUCUAUUCUGCUCCAGGAAAAUCGGAAACCUGUGAGUCAGAGUCAGAGAAACUUACCCAAGCAACGUAAUUCCUGUUUUCAUGGGUGGAAUUCUCGGGUGCCAA`: “RBNS enrichment (R)” 23.
For `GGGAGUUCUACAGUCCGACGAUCAAUCGAGCUGUGGCUGAAGACCCGAGGCUCAGUUAGCAACCUCUGUUGUAGCUGUCAACCCAUUGGUUGUCUUUAGAGAGUUAAUGUUGAAACAAGGAACUCUUGGUCAGUGGAAUUCUCGGGUGCCAA`, “RBNS enrichment (R)” read 0.291.
`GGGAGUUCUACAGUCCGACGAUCACACUUAAUUUUCUAUUGUAAAAAGUAAUAAUAUACAGAGUCUAACAGAAGGUCCUGUUGGGUUUGUUGUUUUUGAGGCUGCCGAAUGGUUUUGGAAUGCAGGGUCAGCCUGGAAUUCUCGGGUGCCAA` — result for “RBNS enrichment (R)”: 3.44.
`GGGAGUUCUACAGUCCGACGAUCGGGAGCCCCACGCUUCAGGAGUAGACUAGAGCCACCUCACUUGUGUUCCGUGGGGUUACAUUUGCUUAAGGAUACACCUUACUUUUUAAUAAAUGGUUUUGAUUGUUCAAUGGAAUUCUCGGGUGCCAA`: “RBNS enrichment (R)” 0.402.
`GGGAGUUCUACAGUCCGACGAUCAGAAGCACAGCUACCUGCCUUCACUGAAAUAUACCUCAGGCUGAAAUUUGGGGUGGGAUAGCAGGUCAGUUGAUCUUCUGCAGGAAGGUGCAGCUUUUCCAUAUCAGCUCUGGAAUUCUCGGGUGCCAA`: “RBNS enrichment (R)” 0.235.
`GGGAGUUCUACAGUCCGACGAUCUAUUAAUGUACAACUCACCACUUCAUGCCAUAGGAGGCUGAAGUUGACGUUGCCUUUUAAGCCUUUUACAUACACUGGUCAGUUCGGAAAAUUCUCAACAAUAAUGUUUGUGGAAUUCUCGGGUGCCAA` — result for “RBNS enrichment (R)”: 0.462.
Under “RBNS enrichment (R)”, `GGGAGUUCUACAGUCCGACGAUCGAUGCUUGGGAUCUCAAGACUGUCUGCCUUCCUGCCUGCUCCUCAGGCCUGAGAGAGGAGCUGCUCAGUUUACAGAACAGGAGCGGGUUACCAGACUCAUUCUUUUCAUCUGGAAUUCUCGGGUGCCAA` is recorded as 1.98.
For `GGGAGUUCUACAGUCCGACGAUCUAAACUGAUUUUCAGAAUUCACUGAACUACUAAAUGUGGGAUUGGAUAAUAGACUUGGAGUGCCGCUGAGGCUGAGAUCUGUGGCCAUUUACAUAGCACAUCAUUCCUCCUGGAAUUCUCGGGUGCCAA`, “RBNS enrichment (R)” read 0.349.
`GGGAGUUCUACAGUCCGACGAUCCCUAUUUAUUUCAGUGAGAAUGCGUGUCCGGUUGCCUCUGUCCCUGUUUGUGCGUCCUUCCUCCCAGCCGGUUCCCACCCUCCUAAGGGUUAUGCCAGUGGAUCUCACGCUGGAAUUCUCGGGUGCCAA`: “RBNS enrichment (R)” 1.28.
For `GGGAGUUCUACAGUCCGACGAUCGUCCGUAUAAACCUGUCAGCACGCACGAGGGUGUCUGUGUUCUAGGAAACGAAUGACUAAUAGCAUUAUGAGUCUUAUGUGAAGACAACACUAUUCUAACACAGGAGAUAUGGAAUUCUCGGGUGCCAA`, “RBNS enrichment (R)” read 8.79.
Under “RBNS enrichment (R)”, `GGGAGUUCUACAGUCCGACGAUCCAGUGGAGAGAUGUUUGGAAACCACAGUCAGUGGAGCCUGGGUGGUACCCAGGCUUUAGCAUUAUUGGAUGUCAAUAGCAUUGUUUUUGUCAUGUAGCUGUUUUAAGAAAUGGAAUUCUCGGGUGCCAA` is recorded as 0.735.

Study 3
Target: Interferon regulatory factor 3, full length, phosphomimetic (IRF3, Homo sapiens, UniProt Q14653, residues 1-427, S386D/S396D/S398D/S402D/T404D/S405D)
Method: protein-binding microarray
Form: double-stranded DNA, one strand shown
Medium: in vitro
Tested at: 2540 nM top
Setting: 60-bp whole probe
Added: salmon DNA 0.4 mg/ml
Baseline: random background probes
Reading: higher = stronger binding
Constant ends, left off below: GCCTAGCAC … GTCTTGATTCGCTTGACGCTGCTG
Construct (chain): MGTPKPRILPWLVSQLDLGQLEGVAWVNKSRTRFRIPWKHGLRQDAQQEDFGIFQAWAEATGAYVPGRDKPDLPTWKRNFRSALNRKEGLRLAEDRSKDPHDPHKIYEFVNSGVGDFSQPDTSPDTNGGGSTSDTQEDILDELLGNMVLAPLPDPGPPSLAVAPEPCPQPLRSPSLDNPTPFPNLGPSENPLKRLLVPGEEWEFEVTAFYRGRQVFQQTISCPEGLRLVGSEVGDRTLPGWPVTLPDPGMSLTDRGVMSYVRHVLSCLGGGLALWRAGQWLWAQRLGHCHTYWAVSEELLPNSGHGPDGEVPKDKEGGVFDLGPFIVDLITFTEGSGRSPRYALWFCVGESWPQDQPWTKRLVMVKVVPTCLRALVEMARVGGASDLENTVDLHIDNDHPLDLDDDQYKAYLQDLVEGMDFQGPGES
`TTGGATATCAGTCTCGATTAGTGCTAG`: “fitted relative affinity” 0.837 z-score.
`GACGGTTTTGGTTTCGGGACGTGCTAG`: “fitted relative affinity” 6.47 z-score.
Under “fitted relative affinity”, `TCAGTTTTTCATTTTGTACTGTGCTAG` is recorded as 2.43 z-score.
`TCAAGTCTCATATTTATACTGTGCTAG`: “fitted relative affinity” 1.06 z-score.
`TCAGTTTTCTAATGTTTTACTGTGCTA`: “fitted relative affinity” 2.71 z-score.
Under “fitted relative affinity”, `TTAGGACTGAACTATCGGTTAGTGCTA` is recorded as 0.0816 z-score.
`TAAGATCTCAGTATCGATTAGTGCTAG`: “fitted relative affinity” 0.955 z-score.
For `TTAGGTATCGTGTATCGGTTAGTGCTA`, “fitted relative affinity” read 1.18 z-score.
`GACGATCTCAATATCGAGACGTGCTAG` — result for “fitted relative affinity”: 0.769 z-score.
Under “fitted relative affinity”, `GACGGTAACGGTTTCGGGACGTGCTAG` is recorded as 2.76 z-score.
`TGAGGTTCCCTTTTCCTTTAGTGCTAG` — result for “fitted relative affinity”: 6.48 z-score.
Under “fitted relative affinity”, `TTAGATTTCAGTCTCGATTTGTGCTAG` is recorded as 2.64 z-score.

Single results of other studies
For `PhoQ, residues 284 288 289 292 302 303 SCCLKL`, the fold induction was 5.8 (PhoP, residues 12 14 15 18 19 STHWV (Escherichia coli, UniProt P23836); Sort-seq, measured: YFP reporter; E. coli; PhoQ-PhoP variant library, added: 10 µM Mg2+; baseline: high Mg2+ state, higher = stronger signaling).

Some of these lines once more (study 1):
Under “normalised enrichment score”, `VQAVRKLDFSDTM [S2Q]` is recorded as 3.52.
Under “normalised enrichment score”, `VSAVRKLDFSLTM [D11L]` is recorded as 2.22.
Under “normalised enrichment score”, `VSAHRKLDFSDTM [V4H]` is recorded as 0.552.
`VSAVRKPDFSDTM [L7P]`: “normalised enrichment score” 0.581.
Under “normalised enrichment score”, `VSAVRKLDFSDCM [T12C]` is recorded as 4.01.
